Results collected from several papers.
Each line is one published result; not all experiments were run side by side. Values joined by “and” are separate records of one study, mostly repeats; a detail may differ. ± marks the error that the study gave.
AKR1B1: Aldo-keto reductase family 1 member B1 (AKR1B1, Homo sapiens, UniProt P15121)
pyrD: Dihydroorotate dehydrogenase (quinone) (pyrD, Acinetobacter baumannii, UniProt B7GZW7)
Sequence of UniProt B7GZW7 (whole entry, looked up): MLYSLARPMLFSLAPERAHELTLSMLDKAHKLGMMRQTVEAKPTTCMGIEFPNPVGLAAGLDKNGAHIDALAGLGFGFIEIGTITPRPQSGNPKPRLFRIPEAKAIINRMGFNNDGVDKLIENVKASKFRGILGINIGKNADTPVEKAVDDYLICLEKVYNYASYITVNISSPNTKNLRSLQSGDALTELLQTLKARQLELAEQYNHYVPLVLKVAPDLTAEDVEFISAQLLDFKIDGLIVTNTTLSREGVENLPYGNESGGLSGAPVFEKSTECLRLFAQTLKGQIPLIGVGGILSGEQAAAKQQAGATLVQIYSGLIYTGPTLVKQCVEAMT
Kir3.1/Kir3.4: Kir3.1/Kir3.4 (Homo sapiens, UniProt P48544+P48549)
Sequence of UniProt P48549 (whole entry, looked up): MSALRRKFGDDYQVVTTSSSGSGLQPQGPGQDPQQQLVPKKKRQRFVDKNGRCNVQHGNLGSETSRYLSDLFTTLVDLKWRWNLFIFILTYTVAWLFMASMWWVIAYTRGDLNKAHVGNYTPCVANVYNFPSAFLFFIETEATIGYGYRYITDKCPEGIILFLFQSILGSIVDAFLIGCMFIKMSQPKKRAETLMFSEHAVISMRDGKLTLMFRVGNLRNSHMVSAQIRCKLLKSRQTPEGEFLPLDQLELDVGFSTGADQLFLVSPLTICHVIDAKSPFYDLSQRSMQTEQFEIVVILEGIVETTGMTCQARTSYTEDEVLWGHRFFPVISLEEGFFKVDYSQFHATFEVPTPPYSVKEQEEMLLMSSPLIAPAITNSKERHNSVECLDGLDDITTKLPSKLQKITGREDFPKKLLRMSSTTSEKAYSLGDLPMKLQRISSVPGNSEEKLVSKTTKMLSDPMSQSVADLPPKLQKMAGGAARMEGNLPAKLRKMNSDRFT
Sequence of UniProt P48544 (whole entry, looked up): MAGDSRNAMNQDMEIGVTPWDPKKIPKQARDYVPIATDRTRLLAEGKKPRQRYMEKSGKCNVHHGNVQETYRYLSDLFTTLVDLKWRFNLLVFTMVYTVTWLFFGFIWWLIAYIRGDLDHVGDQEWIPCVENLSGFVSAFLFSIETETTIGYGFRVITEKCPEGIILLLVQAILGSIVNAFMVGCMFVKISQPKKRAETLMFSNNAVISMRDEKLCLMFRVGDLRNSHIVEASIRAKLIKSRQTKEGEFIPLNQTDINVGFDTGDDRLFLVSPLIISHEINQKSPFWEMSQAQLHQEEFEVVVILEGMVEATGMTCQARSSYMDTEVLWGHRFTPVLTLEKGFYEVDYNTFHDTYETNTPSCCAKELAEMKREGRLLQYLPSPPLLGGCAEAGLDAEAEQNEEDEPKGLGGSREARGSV
TOP2A: DNA topoisomerase 2-alpha (TOP2A, Homo sapiens, UniProt P11388)
Sequence of UniProt P11388 (whole entry, looked up): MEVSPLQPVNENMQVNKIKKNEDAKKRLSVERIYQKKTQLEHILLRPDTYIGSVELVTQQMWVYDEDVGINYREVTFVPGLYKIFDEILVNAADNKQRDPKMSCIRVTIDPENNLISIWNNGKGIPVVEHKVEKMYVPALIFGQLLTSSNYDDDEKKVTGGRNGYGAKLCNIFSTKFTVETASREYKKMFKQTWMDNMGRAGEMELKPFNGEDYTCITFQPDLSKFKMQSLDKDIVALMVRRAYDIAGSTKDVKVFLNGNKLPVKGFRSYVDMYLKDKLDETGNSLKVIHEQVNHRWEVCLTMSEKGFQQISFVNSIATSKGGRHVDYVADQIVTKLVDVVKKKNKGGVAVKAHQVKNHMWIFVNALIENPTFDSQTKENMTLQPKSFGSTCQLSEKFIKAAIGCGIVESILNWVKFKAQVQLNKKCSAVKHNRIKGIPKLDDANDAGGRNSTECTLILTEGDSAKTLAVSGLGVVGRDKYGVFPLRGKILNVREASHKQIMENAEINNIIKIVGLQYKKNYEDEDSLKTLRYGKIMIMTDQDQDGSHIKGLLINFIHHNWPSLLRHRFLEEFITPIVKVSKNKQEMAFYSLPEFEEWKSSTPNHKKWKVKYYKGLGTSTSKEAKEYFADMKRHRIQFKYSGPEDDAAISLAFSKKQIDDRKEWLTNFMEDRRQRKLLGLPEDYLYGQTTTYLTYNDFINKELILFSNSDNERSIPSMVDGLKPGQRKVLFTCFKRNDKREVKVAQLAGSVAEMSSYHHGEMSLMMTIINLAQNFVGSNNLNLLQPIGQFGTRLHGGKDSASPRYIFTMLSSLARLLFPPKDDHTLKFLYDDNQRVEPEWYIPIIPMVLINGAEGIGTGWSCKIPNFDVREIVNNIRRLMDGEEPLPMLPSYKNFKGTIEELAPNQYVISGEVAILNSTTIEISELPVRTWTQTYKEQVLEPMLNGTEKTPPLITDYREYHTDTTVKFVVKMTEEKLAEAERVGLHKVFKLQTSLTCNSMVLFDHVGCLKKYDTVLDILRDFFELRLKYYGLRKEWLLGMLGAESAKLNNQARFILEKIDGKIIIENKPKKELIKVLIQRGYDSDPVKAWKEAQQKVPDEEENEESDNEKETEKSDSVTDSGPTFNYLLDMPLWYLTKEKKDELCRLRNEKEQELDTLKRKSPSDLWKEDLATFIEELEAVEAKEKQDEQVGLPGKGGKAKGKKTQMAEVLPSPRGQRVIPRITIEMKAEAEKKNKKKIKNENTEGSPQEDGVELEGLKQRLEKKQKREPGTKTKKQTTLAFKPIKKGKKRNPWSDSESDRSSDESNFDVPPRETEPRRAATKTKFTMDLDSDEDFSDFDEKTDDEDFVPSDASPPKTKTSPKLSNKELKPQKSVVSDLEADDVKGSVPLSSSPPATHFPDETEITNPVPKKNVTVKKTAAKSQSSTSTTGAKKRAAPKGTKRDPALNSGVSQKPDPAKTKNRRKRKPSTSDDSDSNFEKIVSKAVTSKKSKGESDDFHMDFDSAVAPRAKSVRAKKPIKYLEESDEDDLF
PTH1R: Parathyroid hormone/parathyroid hormone-related peptide receptor (PTH1R, Homo sapiens, UniProt Q03431)
Sequence of UniProt Q695T7 (whole entry, looked up): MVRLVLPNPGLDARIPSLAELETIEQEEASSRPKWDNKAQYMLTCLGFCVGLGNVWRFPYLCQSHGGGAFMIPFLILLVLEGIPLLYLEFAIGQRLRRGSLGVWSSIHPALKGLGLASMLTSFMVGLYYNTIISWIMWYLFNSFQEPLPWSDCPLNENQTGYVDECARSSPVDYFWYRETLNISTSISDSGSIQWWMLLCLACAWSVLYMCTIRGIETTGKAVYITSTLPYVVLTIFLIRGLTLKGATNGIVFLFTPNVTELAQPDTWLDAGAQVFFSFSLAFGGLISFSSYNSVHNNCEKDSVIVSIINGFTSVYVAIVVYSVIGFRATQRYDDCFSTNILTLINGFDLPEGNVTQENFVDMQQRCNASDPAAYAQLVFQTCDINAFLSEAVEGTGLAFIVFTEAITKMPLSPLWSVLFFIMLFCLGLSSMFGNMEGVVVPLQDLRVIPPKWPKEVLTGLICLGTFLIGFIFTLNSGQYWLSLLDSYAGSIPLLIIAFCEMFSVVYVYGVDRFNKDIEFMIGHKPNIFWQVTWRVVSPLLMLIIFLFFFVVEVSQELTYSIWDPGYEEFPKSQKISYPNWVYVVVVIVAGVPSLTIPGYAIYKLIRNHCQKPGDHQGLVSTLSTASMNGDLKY
Sequence of UniProt P51575 (whole entry, unmodified, looked up): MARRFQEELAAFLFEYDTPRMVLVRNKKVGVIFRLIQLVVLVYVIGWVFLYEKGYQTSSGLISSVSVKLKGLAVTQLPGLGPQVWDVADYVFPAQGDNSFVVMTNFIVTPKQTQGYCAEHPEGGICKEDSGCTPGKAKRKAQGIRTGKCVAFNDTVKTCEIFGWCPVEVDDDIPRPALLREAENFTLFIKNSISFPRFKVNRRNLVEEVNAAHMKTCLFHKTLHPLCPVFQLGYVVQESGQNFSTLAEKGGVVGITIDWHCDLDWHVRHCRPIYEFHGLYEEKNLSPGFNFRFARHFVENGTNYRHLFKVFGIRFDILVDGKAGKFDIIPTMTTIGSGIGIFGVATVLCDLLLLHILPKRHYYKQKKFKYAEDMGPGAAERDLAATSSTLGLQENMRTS
Sequence of UniProt Q16774 (whole entry, unmodified, looked up): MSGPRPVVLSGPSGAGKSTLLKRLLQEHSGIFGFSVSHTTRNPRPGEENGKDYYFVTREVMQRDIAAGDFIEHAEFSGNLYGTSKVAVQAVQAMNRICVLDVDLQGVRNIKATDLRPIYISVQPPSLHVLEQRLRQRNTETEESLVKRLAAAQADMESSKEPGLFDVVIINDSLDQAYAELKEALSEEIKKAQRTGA
Sequence of UniProt Q03431 (whole entry, looked up): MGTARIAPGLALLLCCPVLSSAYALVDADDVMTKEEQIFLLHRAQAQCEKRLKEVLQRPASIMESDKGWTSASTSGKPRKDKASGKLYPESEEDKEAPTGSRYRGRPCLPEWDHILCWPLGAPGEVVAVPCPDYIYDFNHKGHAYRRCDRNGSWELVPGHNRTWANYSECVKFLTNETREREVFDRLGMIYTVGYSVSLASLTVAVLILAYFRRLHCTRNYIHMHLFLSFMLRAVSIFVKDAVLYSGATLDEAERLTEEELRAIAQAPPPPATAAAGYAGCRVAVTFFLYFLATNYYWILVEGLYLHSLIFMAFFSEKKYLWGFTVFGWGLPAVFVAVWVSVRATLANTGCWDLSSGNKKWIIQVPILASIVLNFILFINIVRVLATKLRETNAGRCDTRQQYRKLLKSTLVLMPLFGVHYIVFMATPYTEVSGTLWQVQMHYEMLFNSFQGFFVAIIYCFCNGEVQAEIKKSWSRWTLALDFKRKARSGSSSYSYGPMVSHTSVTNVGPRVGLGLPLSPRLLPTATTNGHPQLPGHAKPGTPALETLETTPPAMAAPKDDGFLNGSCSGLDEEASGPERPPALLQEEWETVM
Sequence of UniProt P00441 (whole entry, unmodified, looked up): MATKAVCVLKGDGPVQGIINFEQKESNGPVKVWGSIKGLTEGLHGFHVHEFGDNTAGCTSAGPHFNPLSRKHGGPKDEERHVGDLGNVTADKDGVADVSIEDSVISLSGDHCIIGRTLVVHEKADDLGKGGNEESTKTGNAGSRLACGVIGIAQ
Sequence of UniProt P31941 (whole entry, looked up): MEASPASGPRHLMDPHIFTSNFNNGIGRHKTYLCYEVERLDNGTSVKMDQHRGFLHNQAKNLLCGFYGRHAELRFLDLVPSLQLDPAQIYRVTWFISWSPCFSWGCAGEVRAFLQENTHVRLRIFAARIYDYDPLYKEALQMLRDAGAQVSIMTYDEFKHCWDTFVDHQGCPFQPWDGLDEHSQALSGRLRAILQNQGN

O=C(CN1C(=O)S/C(=C\c2cccc(Br)c2)C1=O)c1ccc([N+](=O)[O-])cc1 — log IC50 (AKR1B1; enzyme activity, inhibitor): 2.61 log nM
O=S(=O)(O)C1CCNCC1 — normalised MST signal (SLC6A6 (Homo sapiens, UniProt P31641, G62A); binding, microscale thermophoresis; 244 nM, room temperature, with: 50 nM labelled protein; higher = more binding): 0.0208
CC1=NN(c2ccccc2)C(=O)C1=NNc1ccc(S(N)(=O)=O)cc1 — inhibition (bovine α-glucosidase; enzyme activity, inhibitor, glucose oxidase; 200 µg/mL, with: maltose): 40.1%
C=CC(=O)N1CCC(COCC(=O)N2CCN(c3nc(-c4cnc(N)nc4C(F)F)nc(N4CCOC[C@@H]4C)n3)CC2)CC1 — remaining binding (TAOK1 (Homo sapiens, UniProt Q7L7X3); KINOMEscan; 1 µM): 93%
O=C(CN1C(=O)S/C(=C\c2cccc([N+](=O)[O-])c2)C1=O)c1ccc([N+](=O)[O-])cc1 — log IC50 (AKR1B1; enzyme activity, inhibitor): 2.71 log nM
Nc1nc2c(ncn2[C@@H]2O[C@H](COP(=O)(O)O)[C@@H](O)[C@H]2O)c(=O)[nH]1 — reaction rate (GUK1 (Homo sapiens, UniProt Q16774, E72A); enzyme activity, NADH-coupled; 31.25 µM): -0.639 s⁻¹ and -0.126 s⁻¹ and -0.559 s⁻¹
Nc1ncnc2c1ncn2[C@@H]1O[C@H](COP(=O)(O)OP(=O)(O)NP(=O)(O)O)[C@@H](O)[C@H]1O — ΔH (Cell cycle histidine kinase CckA, CA domain (Caulobacter vibrioides, UniProt Q9X688); ITC; with: c-di-GMP 100 µM): -2390 ± 156 cal/mol
CCCCCCCCCCCc1ccc([C@H]2CC[C@H]([N+](C)(C)CCC)CC2)cc1.[I-] — Ki/Km ratio (SPHK2 (Homo sapiens, UniProt Q9NRA0); inhibitor, radiometric flash-plate; cell lysate; with: sphingosine 5 µM): 2.2
[O-][S+]1CCCCS1 (centres unmarked) — target engagement (SOD1 (Homo sapiens, UniProt P00441, G94A); intact protein LC-MS; SOD1 G93A transgenic mice, whole blood; intravenous, 10 mg/kg, 72 h): 15.8% and 16%
Cc1cccc(N2CC(C(=O)O)CC2=O)c1 (centres unmarked) — fold enrichment (Protein transport protein Sec31A (SEC31A, Homo sapiens, UniProt O94979); binding, affinity selection mass spectrometry; relative to: other proteins in batch): 0.95
CN(C)C(=O)C(CCN1CCC(O)(c2ccc(Cl)cc2)CC1)(c1ccccc1)c1ccccc1 — Hill coefficient (Calcium-activated potassium channel subunit alpha-1, with LRRC26 γ1 subunit (KCNMA1, Homo sapiens, UniProt Q12791); BK channel conductance, inside-out patch clamp; BKα/γ1, Vm 0 mV, nominally Ca2+-free): 1.33 ± 0.49
Nc1c(Br)cc(Br)cc1CN[C@H]1CC[C@H](O)CC1 — activation (SCN2A (Homo sapiens, UniProt Q99250); ion current; 3 µM, 0.08333 h): 29.3%
Nc1ccn([C@H]2C[C@H](O)[C@@H](COP(=O)(O)OP(=O)(O)OP(=O)(O)O)O2)c(=O)n1 — Km (DNA polymerase beta (POLB, Homo sapiens, UniProt P06746); nucleotide incorporation, substrate, steady-state kinetics; with: AP-site primer-template): 2000 nM
Cc1cc(Nc2ccc(C(C)(C)C)cc2)n2nc(C(C)(F)F)nc2n1 — robust Z-score (pyrD; enzyme activity, inhibitor, colorimetric HTS, measured: DCIP reduction; 3 µM; direction not given): 19.2
O=c1cc(-c2ccc([N+](=O)[O-])cc2)[nH]c2c(-c3ccc(Cl)cc3)c(Cc3ccccc3)nn12 — melting temperature shift (Heme-binding protein 1 (HEBP1, Homo sapiens, UniProt Q9NRV9); thermal stability, binder, thermal proteome profiling; RD, cell lysate; 50 µM, 0.5% DMSO; relative to: DMSO vehicle): 3.9 °C
CCC1(O)CCCN(C(=O)c2ccc(-c3ccc(F)c(NC(=O)CCl)c3)cc2)C1 (centres unmarked) — protein adduct (DNA dC->dU-editing enzyme APOBEC-3A (Homo sapiens, UniProt P31941); covalent modifier, intact protein mass spectrometry, measured: adduct +26309 Da; 25 µM, 3 h, 1-fold molar excess): 66.5%
CC(C)C[C@H](N)C(=O)O — Bmax (snf (Aquifex aeolicus, UniProt O67854); scintillation proximity; 10 nM LeuT, with: clomipramine 1 mM): 5660 ± 197 cpm/pmol LeuT
N[C@@H](Cc1ccccc1)C(=O)Nc1ccc2ccccc2c1 — kcat (rat aminopeptidase III; substrate; MW 110 kDa): 5.17 s⁻¹
Cc1n[nH]c2ccc(-c3cc(OC[C@@H](N)Cc4ccccc4)cnc3-c3ccoc3)cc12 — log2 fold change (Cyclin-dependent kinase 1 (CDC28, Candida albicans, UniProt P43063); kinase binding, competitor, MIB/MS competition, measured: CDC28; Candida albicans cell lysate; 100 nM; relative to: DMSO): 0.12
COC(=O)c1ccc(NC(=O)COc2cccc(Cl)c2Cl)s1 — activity (Kir3.1/Kir3.4; activator, thallium flux; HEK293; concentration not given): inactive
CC1=NNC(=O)C1=NNc1ccc(S(N)(=O)=O)cc1 — inhibition (bovine α-glucosidase; enzyme activity, inhibitor, glucose oxidase; 200 µg/mL, with: maltose): 38.8%
Nc1nc(=O)n([C@H]2C[C@H](O)[C@@H](CO)O2)cc1CSCC[C@H](N)C(=O)O — inhibition type (DNMT1 (Homo sapiens, UniProt P26358); radiometric [3H]-SAM; concentration not given, with: SAM, poly(dI-dC)): inhibited
NC/C(=C\F)COc1cccc(Cn2c(=S)[nH]c(=O)c3[nH]cnc32)c1 — activity response (AOC3 (Homo sapiens, UniProt Q16853); enzyme activity, Amplex Red H2O2 production; 30 µM): 100%
C[C@]12C[C@H](O)[C@H]3[C@@H](CCC4=CC(=O)CC[C@@]43C)[C@@H]1CC[C@@H]2C(=O)CO — kon (CYP11B1 (Homo sapiens, UniProt P15538, V320A); nanodiscs; 25 °C, fast phase): 10000 M⁻¹ s⁻¹
NCCS(=O)(=O)O — normalised MST signal (SLC6A6 (Homo sapiens, UniProt P31641, Y138A); binding, microscale thermophoresis; 1.95 µM, room temperature, with: 50 nM labelled protein; higher = more binding): -0.0477
O=c1nc(SCc2cc(F)cc(C(F)(F)F)c2)nc(SCc2ccc3nc(OCCN4CCOCC4)ccc3c2)[nH]1 — decatenated DNA (TOP2A; decatenation; 125 µM, replicate 2): 0%
O=C(COc1ccc(C(F)(F)F)cc1C(F)(F)F)Nc1cc(C2CC2)nn1C1CCC(F)(F)CC1 — Emax (Kir3.1/Kir3.4; thallium flux, activator; HEK293; relative to: standard compound): 36%
CC[C@H](C)[C@H](NC(=O)[C@H](CCC(=O)O)NC(=O)[C@H](C)NC(=O)[C@@H](NC(=O)[C@H](Cc1c[nH]cn1)NC(=O)[C@H]1CCC[C@@H]1NC(=O)[C@H](CCC(=O)O)NC(=O)[C@H](C)NC(=O)[C@H]1CCC[C@@H]1NC(=O)[C@H](CC(C)C)NC(=O)[C@H](Cc1c[nH]cn1)NC(=O)[C@H](Cc1c[nH]cn1)NC(=O)[C@H]1CCC[C@@H]1NC(=O)[C@H](Cc1ccccc1)NC(=O)[C@H](Cc1ccccc1)NC(=O)[C@H](CCCNC(=N)N)NC(=O)[C@H](CCCNC(=N)N)NC(=O)[C@H](CCCNC(=N)N)NC(=O)[C@H]1CCC[C@@H]1NC(=O)[C@H](CC(=O)O)NC(=O)[C@H](CCC(N)=O)NC(=O)[C@@H](NC(=O)C[C@H](Cc1c[nH]c2ccccc12)NC(=O)[C@H](CCCCN)NC(=O)[C@@H](Cc1c[nH]c2ccccc12)NC(=O)[C@H](CC(C)C)NC(=O)[C@H](CC(=O)O)NC(=O)[C@H](Cc1c[nH]cn1)NC(=O)[C@H](CC(C)C)NC(=O)C[C@@H](N)CC(C)C)[C@@H](C)CC)[C@@H](C)O)C(N)=O — basal cAMP formation (PTH1R; inverse agonist, GloSensor cAMP; HEK293 expressing PTH1R): decreased
CC[C@H](C)[C@H](NC(=O)[C@H](CCC(=O)O)NC(=O)[C@H](CO)NC(=O)[C@@H](NC(=O)[C@@H](N)CO)C(C)C)C(=O)N[C@@H](CCC(N)=O)C(=O)N[C@@H](CC(C)C)C(=O)N[C@@H](CCSC)C(=O)N[C@@H](Cc1c[nH]cn1)C(=O)N[C@@H](CC(N)=O)C(=O)N[C@@H](CC(C)C)C(=O)NCC(=O)N[C@@H](CCCCN)C(=O)N[C@@H](Cc1c[nH]cn1)C(=O)N[C@@H](CC(C)C)C(=O)N[C@@H](CC(N)=O)C(=O)N[C@@H](CO)C(=O)N[C@@H](CCSC)C(=O)N[C@@H](CCC(=O)O)C(=O)N[C@@H](CCCNC(=N)N)C(=O)N[C@H](C(=O)N[C@@H](CCC(=O)O)C(=O)N[C@@H](Cc1c[nH]c2ccccc12)C(=O)N[C@@H](CC(C)C)C(=O)N[C@@H](CCCNC(=N)N)C(=O)N[C@@H](CCCCN)C(=O)N[C@@H](CCCCN)C(=O)N[C@@H](CC(C)C)C(=O)N[C@@H](CCC(N)=O)C(=O)N[C@@H](CC(=O)O)C(=O)N[C@H](C(=O)N[C@@H](Cc1c[nH]cn1)C(=O)N[C@@H](CC(N)=O)C(=O)N[C@@H](Cc1ccccc1)C(N)=O)C(C)C)C(C)C — maximum cAMP response (PTH1R; agonist, GloSensor; SGS-72; 316 pM): 62.1%
CCOCc1nc(O)c(-c2nnc(Cc3ccc(Cl)cn3)o2)c(O)c1-c1c(OC)cccc1OC — Emax (Apelin receptor (APLNR, Homo sapiens, UniProt P35414); GαoA activation, agonist, BRET biosensor; HEK293): 102 ± 3%
CCOC(=O)[C@@]12C[C@@H]1[C@@H](n1cnc3c(NCCCCCc4ccccc4)nc(C#Cc4ccccc4)nc31)[C@H](O)[C@@H]2O — dopamine uptake (SLC6A3 (Homo sapiens, UniProt Q01959); inhibitor; HEK293; concentration not given, with: [3H]dopamine 20 nM): no effect
CCOc1nc2nc(C)cc(Nc3ccc(C(F)(F)F)cc3)n2n1 — robust Z-score (pyrD; enzyme activity, inhibitor, colorimetric HTS, measured: DCIP reduction; 3 µM; direction not given): 20
CC(C)[C@H](NC(=O)c1cc(-c2cnn3cc(-c4ccc(OCCN5CCCCC5)cc4)cnc23)cs1)C(F)(F)F — relative inhibition (PKN2 (human); radiometric kinase; 15 nM; relative to: PKN2 over ULK1): 0
Cc1cc(Nc2cc(F)c(C(F)(F)F)c(F)c2)n2ncnc2n1 — robust Z-score (pyrD; enzyme activity, inhibitor, colorimetric HTS, measured: DCIP reduction; 3 µM; direction not given): 18.8
O=c1nc(SCc2cc(F)cc(C(F)(F)F)c2)nc(SCc2csc3ccc(Cl)cc23)[nH]1 — decatenated DNA (TOP2A; decatenation; 0.12 µM, replicate 2): 0%
O=C(COP(=O)(O)O)[C@@H](O)[C@H](O)[C@H](O)COP(=O)(O)O — thermal stability ratio (HDAC2 (Homo sapiens, UniProt Q92769); thermal proteome profiling; HepG2 cell lysate; concentration not given, 57 over 37 °C, mean; relative to: compound over control): 0.505
CN1CCN(c2cc(-c3ccncc3)c(-c3ccc4ccccc4c3)nn2)CC1 — activation (PTGER3 (Homo sapiens, UniProt P43115); agonist, FLIPR; 12.5 µM): -0.5%
Nc1ncnc2c1ncn2[C@@H]1O[C@H](COP(=O)(O)CP(=O)(O)OP(=O)(O)O)[C@@H](O)[C@H]1O — calcium influx (P2X purinoceptor 1 (P2RX1, Homo sapiens, UniProt P51575, M214A); calcium influx; 3.16 µM; relative to: ionomycin response): 100% and 94.8% and 97.2% and 92.9%
N#Cc1ccsc1NC(=O)COc1ccc(Cl)cc1Cl — activity (Kir3.1/Kir3.4; activator, thallium flux; HEK293; concentration not given): inactive
COc1ccc(/C=C2\SC(=O)N(Cc3nc4ccccc4s3)C2=O)cc1OC — log IC50 (AKR1B1; enzyme activity, inhibitor): 2.66 log nM
CC(C)(COP(=O)(O)OP(=O)(O)OC[C@H]1O[C@@H](n2cnc3c(N)ncnc32)[C@H](O)[C@@H]1OP(=O)(O)O)[C@@H](O)C(=O)NCCC(=O)NCCS — Ki (Carnitine O-acetyltransferase (CRAT, Columba livia, UniProt P52826); stopped-flow global fit; pH 7.8, ambient, ordered bi-bi mechanism): 102 µM
CCNC(=O)/C=C/c1cccc(Br)c1 — L-leucine uptake (SLC6A19 (Homo sapiens, UniProt Q695T7); inhibitor, L-[14C]leucine uptake; CHO-BC cells; 100 µM, sodium-free): 5.77 nmol/6 min/mg protein and 5.39 nmol/6 min/mg protein and 5.56 nmol/6 min/mg protein
Cc1cc(Nc2ccc(S(F)(F)(F)(F)F)cc2)n2nc(C(C)C)nc2n1 — robust Z-score (pyrD; enzyme activity, inhibitor, colorimetric HTS, measured: DCIP reduction; 3 µM; direction not given): 19.1
O=C(COc1ccc(Cl)cc1Cl)NCc1cccs1 — activity (Kir3.1/Kir3.4; activator, thallium flux; HEK293; concentration not given): inactive

Some of these lines once more:
CN1CCN(c2cc(-c3ccncc3)c(-c3ccc4ccccc4c3)nn2)CC1 — activation (PTGER3 (Homo sapiens, UniProt P43115); agonist, FLIPR; 12.5 µM): -0.5%
CN(C)C(=O)C(CCN1CCC(O)(c2ccc(Cl)cc2)CC1)(c1ccccc1)c1ccccc1 — Hill coefficient (Calcium-activated potassium channel subunit alpha-1, with LRRC26 γ1 subunit (KCNMA1, Homo sapiens, UniProt Q12791); BK channel conductance, inside-out patch clamp; BKα/γ1, Vm 0 mV, nominally Ca2+-free): 1.33 ± 0.49
